Published values gathered from unrelated publications.
Each numbered part is a random draw from the data of one study; scales do not carry over between parts.
UniProt Q9UHD2, sequence (whole entry, looked up): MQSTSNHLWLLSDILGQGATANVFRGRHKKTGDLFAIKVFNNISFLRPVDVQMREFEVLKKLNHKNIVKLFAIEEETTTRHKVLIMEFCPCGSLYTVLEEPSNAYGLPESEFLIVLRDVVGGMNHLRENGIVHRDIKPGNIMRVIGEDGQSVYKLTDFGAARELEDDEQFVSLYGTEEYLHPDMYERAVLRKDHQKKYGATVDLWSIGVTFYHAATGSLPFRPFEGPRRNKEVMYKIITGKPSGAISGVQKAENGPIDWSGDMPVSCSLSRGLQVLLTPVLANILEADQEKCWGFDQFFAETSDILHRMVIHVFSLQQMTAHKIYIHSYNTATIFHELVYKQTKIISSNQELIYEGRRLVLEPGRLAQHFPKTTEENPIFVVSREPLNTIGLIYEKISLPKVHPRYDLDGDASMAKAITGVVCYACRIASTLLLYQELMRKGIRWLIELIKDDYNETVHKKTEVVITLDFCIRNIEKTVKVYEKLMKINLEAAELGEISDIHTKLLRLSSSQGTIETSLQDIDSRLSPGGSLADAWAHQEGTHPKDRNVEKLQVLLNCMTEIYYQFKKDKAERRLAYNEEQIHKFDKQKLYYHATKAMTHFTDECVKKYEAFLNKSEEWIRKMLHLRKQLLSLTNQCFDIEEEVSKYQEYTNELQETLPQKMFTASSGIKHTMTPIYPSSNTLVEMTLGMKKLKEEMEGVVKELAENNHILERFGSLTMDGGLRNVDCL
UniProt P45984, sequence (whole entry, looked up): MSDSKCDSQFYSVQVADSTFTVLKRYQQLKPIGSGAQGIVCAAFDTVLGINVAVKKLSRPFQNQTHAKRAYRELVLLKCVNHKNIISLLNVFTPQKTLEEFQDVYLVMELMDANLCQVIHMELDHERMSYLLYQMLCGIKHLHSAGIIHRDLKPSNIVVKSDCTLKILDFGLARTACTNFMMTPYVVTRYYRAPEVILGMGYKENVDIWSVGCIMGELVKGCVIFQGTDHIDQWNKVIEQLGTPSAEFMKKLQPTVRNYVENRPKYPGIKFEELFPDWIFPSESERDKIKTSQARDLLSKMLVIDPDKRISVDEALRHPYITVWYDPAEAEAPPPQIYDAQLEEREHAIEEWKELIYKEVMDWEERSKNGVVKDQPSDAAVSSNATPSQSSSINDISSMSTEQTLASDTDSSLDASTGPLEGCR
UniProt Q00526, sequence (whole entry, looked up): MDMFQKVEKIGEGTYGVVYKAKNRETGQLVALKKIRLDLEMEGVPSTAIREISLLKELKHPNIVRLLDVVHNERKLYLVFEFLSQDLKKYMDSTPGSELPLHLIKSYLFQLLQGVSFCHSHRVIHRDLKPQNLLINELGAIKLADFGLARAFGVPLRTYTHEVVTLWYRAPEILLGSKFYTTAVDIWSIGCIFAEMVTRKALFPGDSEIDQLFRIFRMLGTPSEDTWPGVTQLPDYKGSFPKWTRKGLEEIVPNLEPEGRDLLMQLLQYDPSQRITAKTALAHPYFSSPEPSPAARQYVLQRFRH
UniProt P53350, sequence (whole entry, looked up): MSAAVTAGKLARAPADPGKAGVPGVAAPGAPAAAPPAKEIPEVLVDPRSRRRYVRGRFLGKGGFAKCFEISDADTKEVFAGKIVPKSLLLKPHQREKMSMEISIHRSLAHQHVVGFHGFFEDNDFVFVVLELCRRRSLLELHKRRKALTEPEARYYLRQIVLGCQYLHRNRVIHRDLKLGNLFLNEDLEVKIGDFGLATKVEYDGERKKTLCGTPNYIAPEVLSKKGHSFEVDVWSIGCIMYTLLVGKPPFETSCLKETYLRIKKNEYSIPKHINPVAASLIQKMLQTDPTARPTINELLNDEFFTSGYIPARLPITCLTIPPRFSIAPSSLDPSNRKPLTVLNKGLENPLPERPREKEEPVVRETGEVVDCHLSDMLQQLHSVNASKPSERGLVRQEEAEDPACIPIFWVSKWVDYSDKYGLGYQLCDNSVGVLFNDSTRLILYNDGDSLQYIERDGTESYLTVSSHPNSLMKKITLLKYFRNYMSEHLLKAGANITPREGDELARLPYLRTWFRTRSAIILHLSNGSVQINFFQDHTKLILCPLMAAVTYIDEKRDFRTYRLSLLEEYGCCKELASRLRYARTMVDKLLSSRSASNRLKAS
UniProt Q9Y6M4, sequence (whole entry, looked up): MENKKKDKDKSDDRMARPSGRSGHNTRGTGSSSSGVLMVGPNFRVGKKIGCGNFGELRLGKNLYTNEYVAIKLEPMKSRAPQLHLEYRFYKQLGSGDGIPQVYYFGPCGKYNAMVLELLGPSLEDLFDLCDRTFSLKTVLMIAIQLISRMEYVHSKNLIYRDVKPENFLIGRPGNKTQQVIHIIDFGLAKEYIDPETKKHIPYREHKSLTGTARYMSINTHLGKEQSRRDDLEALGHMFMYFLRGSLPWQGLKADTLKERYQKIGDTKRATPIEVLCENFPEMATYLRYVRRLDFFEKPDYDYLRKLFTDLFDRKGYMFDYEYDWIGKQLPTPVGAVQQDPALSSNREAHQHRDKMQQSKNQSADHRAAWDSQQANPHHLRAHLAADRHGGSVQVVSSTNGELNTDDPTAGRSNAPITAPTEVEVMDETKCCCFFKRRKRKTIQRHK
UniProt O15264, sequence (whole entry, looked up): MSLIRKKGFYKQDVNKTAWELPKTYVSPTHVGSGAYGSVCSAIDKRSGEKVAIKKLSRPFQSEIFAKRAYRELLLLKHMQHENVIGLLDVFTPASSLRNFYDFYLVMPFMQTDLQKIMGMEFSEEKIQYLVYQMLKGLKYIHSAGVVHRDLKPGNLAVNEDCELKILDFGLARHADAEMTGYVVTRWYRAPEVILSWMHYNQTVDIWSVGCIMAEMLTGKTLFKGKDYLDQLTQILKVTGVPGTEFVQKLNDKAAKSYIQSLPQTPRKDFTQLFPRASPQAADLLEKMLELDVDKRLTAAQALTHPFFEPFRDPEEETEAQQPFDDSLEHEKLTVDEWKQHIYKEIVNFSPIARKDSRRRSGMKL

Block 1
Target: Sodium-dependent neutral amino acid transporter B(0)AT1 (SLC6A19, Homo sapiens, UniProt Q695T7)
UniProt Q695T7, sequence (whole entry, looked up): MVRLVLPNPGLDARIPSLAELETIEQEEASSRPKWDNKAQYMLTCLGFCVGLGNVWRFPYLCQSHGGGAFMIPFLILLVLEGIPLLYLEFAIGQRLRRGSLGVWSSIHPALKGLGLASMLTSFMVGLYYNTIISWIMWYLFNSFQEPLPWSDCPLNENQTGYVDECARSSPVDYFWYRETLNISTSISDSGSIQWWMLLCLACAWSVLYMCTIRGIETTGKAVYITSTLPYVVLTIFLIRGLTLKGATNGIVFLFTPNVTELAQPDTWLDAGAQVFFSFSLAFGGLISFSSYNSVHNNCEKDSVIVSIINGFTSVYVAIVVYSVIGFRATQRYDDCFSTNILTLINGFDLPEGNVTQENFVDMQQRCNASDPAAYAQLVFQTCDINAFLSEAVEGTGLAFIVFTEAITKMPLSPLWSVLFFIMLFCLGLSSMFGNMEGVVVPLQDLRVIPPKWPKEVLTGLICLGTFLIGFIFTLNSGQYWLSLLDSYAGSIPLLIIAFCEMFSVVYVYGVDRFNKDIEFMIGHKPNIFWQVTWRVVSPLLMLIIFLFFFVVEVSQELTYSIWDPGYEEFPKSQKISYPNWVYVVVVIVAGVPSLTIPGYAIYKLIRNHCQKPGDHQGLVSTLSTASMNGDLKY
Technique: FLIPR membrane potential
Cells: CHO-BC
Concentration: concentration not given
Baseline: background subtracted
SMILES | remaining activity [%]
Cc1cc(OCC(=O)NC(C)C)ccc1Br | -2.68
CCCNC(=O)COc1cc(C)c(Cl)c(C)c1 | 10.6
Cc1cc(NCC(=O)NC(C)C)cc(C)c1Cl | -1.72
CC(C)NC(=O)COc1cccc2ccccc12 | 9.77
CC(C)NC(=O)COc1ccc2ccccc2c1 | 1.17
CC(C)NC(=O)CSc1ccc(Cl)cc1 | 10.5
CC(C)NC(=O)COC(c1ccccc1)c1ccccc1 | 82.9
Cc1cc(OCC(=O)NC(C)C)cc(C)c1Br | 11.4
Cc1cc(OCC(=O)NC(C)C)ccc1I | -3.23
CNC(=O)COc1cc(C)c(Cl)c(C)c1 | 44.1

Block 2
SMILES: CCN1/C(=C/C=C2\CCCC(/C=C/C3=[N+](CC)c4ccccc4C3(C)C)=C2NCCCCCCCCN2CCC(Nc3nc4ccccc4n3Cc3ccc(F)cc3)CC2)C(C)(C)c2ccccc21
Cell line: U-87 MG
Concentration: concentration not given
Baseline: DMSO
measured | log2 fold change
NAA11 mRNA | 5.71
GGH | -0.927
TNS2 mRNA | -1.84
CSNK2A2 mRNA | 0.984
CCNB2 mRNA | -1.64
PER3 mRNA | -1.22
TREX1 mRNA | -1.11
MTCL1 mRNA | -0.979
EYA1 mRNA | -1.31
GPR85 mRNA | -0.881
PRRX1 mRNA | 1.11
FANCB mRNA | -1.86
STOML1 mRNA | -1.11
SYTL3 mRNA | 1.47
DBH mRNA | -1.28
H2AX mRNA | -1.91

Block 3
Compound: C[C@@H]1CN(c2ccc(-c3cc(C(=O)NCCOCCOCCOCCOCCOCCOCCNC(=O)/C=C/c4[nH]cc(C(=O)N[C@@H](CC(N)=O)c5ccc(F)c(Cl)c5)c4-c4ccc(Cl)cc4F)ccc3F)cc2NC(=O)c2ccc(F)cc2C(F)(F)F)C[C@H](C)N1C
Effect on: thermal unfolding
Technique: differential scanning fluorimetry
Concentration: 5.5 µM
Direction: higher = more unfolded
WDR5: WD repeat-containing protein 5 (WDR5, Homo sapiens, UniProt P61964)
DCAF1: DDB1- and CUL4-associated factor 1 (DCAF1, Homo sapiens, UniProt Q9Y4B6)
UniProt Q9Y4B6, sequence (whole entry, looked up): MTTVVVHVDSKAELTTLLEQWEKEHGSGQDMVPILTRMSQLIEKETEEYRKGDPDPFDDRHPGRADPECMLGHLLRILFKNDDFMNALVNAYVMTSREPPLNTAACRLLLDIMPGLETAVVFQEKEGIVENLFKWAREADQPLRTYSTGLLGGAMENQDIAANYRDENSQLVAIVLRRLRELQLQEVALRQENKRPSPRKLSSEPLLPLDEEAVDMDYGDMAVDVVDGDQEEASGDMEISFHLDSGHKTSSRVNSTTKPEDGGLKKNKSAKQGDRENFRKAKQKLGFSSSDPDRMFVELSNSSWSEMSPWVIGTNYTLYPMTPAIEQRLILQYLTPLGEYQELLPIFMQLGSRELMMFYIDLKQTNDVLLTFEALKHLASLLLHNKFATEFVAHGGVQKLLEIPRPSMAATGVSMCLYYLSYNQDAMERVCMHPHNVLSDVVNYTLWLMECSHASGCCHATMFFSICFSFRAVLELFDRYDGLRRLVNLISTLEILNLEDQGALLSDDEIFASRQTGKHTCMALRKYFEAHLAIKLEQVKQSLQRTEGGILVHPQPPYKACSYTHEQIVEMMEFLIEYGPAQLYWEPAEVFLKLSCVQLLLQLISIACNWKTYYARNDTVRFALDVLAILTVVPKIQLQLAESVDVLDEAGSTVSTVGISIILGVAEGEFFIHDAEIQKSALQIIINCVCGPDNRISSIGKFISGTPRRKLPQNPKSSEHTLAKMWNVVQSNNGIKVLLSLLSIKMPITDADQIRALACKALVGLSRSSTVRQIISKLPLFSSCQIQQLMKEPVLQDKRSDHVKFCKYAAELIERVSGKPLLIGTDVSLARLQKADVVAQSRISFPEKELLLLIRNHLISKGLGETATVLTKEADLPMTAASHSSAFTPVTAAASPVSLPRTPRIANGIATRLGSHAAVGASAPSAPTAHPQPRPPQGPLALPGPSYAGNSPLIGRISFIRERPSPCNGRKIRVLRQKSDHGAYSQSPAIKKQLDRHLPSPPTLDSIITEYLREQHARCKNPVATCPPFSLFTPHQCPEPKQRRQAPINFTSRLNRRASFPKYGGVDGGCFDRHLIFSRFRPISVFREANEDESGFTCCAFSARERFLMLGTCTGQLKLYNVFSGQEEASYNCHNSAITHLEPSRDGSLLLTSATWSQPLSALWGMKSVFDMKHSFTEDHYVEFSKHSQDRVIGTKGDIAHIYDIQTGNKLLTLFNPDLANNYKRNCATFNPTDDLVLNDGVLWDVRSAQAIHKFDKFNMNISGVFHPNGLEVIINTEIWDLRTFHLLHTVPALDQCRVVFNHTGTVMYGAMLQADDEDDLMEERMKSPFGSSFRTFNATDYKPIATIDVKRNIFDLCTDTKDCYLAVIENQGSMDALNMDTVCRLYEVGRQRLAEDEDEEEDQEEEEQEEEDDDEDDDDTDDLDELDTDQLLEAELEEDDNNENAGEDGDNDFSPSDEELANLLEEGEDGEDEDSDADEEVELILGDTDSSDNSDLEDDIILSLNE
target | temperature | SYPRO Orange fluorescence
WDR5 | 27.2 °C | 13400 a.u.
DCAF1 | 60.21 °C | 47900 a.u.
WDR5 | 33.4 °C | 13800 a.u.
DCAF1 | 80.41 °C | 39700 a.u.
DCAF1 | 66.01 °C | 52700 a.u.
WDR5 | 56.61 °C | 16000 a.u.
WDR5 | 49 °C | 15900 a.u.
WDR5 | 47.2 °C | 15200 a.u.
WDR5 | 31.6 °C | 13700 a.u.
DCAF1 | 66.41 °C | 52300 a.u.
DCAF1 | 36.4 °C | 10500 a.u.

Block 4
SMILES: CCC1(c2cccc(-c3cn(C)nc3C)c2)C2=C(Nc3n[nH]cc31)C(F)C(C)(C)CC2=O (single isomer, unassigned)
Concentration: 1 µM
target | effect on | technique | baseline | remaining binding
CDK14 (Homo sapiens, UniProt O94921) | kinase binding | KINOMEscan | DMSO control | 100%
FLT3 ITD, human |  | KINOMEscan |  | 100%
MAPK9 (Homo sapiens, UniProt P45984) | kinase binding | KINOMEscan | DMSO control | 100%
FLT3 (Homo sapiens, UniProt P36888, N841I) | binding | competition with immobilised ligand |  | 100%
FLT3 ITD/D835V, human |  | KINOMEscan |  | 100%
CDK4 (Homo sapiens, UniProt P11802) | binding | competition with immobilised ligand |  | 71%
CDK16 (Homo sapiens, UniProt Q00536) | binding | competition with immobilised ligand |  | 100%
SRC (Homo sapiens, UniProt P12931) | binding | competition with immobilised ligand |  | 100%
MAPK13 (Homo sapiens, UniProt O15264) | binding | competition with immobilised ligand |  | 99%
FES (Homo sapiens, UniProt P07332) | binding | competition with immobilised ligand |  | 100%
TBK1 (Homo sapiens, UniProt Q9UHD2) | binding | competition with immobilised ligand |  | 100%
STK38 (Homo sapiens, UniProt Q15208) | kinase binding | KINOMEscan | DMSO control | 94%
CSNK1G3 (Homo sapiens, UniProt Q9Y6M4) | kinase binding | KINOMEscan | DMSO control | 100%
MAPK14 (Homo sapiens, UniProt Q16539) | binding | competition with immobilised ligand |  | 100%
CDK3 (Homo sapiens, UniProt Q00526) | kinase binding | KINOMEscan | DMSO control | 100%
PRKAA2 (Homo sapiens, UniProt P54646) | kinase binding | KINOMEscan | DMSO control | 100%
MAPK12 (Homo sapiens, UniProt P53778) | kinase binding | KINOMEscan | DMSO control | 100%
PRKCQ (Homo sapiens, UniProt Q04759) | kinase binding | KINOMEscan | DMSO control | 73%
NUAK1 (Homo sapiens, UniProt O60285) | binding | competition with immobilised ligand |  | 98%
PLK1 (Homo sapiens, UniProt P53350) | binding | competition with immobilised ligand |  | 100%

Repeated from above (block 3):
target | temperature | SYPRO Orange fluorescence
DCAF1 | 80.41 °C | 39700 a.u.
DCAF1 | 66.01 °C | 52700 a.u.
WDR5 | 56.61 °C | 16000 a.u.
WDR5 | 49 °C | 15900 a.u.
WDR5 | 47.2 °C | 15200 a.u.
WDR5 | 31.6 °C | 13700 a.u.
DCAF1 | 66.41 °C | 52300 a.u.
